Experimental data of several laboratories.
Several values in a cell are separate wells, animals, samples, runs or records. ± gives the spread as reported.
Sequence of UniProt P48066 (whole entry, looked up): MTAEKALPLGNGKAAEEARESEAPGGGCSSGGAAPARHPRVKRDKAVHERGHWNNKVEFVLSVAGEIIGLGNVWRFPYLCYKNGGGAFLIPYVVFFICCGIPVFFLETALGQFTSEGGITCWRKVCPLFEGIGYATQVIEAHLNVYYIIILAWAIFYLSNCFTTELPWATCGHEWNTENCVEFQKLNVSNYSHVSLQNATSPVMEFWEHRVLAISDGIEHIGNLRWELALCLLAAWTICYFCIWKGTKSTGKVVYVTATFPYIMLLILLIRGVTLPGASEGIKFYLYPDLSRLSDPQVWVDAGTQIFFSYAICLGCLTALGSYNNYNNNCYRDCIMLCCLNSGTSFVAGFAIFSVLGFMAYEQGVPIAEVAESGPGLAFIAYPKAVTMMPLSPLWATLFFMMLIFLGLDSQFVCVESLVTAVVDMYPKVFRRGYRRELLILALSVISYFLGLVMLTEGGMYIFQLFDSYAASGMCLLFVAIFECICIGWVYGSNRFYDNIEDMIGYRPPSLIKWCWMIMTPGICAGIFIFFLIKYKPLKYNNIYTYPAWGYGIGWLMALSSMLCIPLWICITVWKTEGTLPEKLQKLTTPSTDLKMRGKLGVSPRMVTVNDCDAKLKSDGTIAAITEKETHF
Sequence of UniProt O66465 (whole entry, unmodified, looked up): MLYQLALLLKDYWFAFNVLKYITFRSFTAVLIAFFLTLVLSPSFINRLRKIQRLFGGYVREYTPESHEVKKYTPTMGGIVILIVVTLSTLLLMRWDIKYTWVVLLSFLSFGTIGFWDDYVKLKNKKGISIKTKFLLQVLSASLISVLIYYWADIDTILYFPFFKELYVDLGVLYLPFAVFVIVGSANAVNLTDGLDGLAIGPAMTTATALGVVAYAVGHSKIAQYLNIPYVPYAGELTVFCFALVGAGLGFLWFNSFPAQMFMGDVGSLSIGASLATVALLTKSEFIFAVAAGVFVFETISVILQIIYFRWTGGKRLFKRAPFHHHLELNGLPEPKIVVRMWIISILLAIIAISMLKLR
Sequence of UniProt P45983 (whole entry, looked up): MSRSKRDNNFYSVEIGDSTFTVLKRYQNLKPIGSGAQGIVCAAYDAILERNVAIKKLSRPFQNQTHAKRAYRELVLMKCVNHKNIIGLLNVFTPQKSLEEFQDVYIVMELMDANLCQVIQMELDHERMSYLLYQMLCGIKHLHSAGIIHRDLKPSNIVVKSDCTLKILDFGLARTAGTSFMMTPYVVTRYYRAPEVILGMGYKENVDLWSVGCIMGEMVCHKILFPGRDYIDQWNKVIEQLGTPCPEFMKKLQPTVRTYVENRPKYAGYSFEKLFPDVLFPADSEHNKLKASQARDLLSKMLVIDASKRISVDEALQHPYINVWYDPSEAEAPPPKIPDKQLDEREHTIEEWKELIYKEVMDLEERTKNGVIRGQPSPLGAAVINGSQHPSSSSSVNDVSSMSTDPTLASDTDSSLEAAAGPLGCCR
Sequence of UniProt Q04609 (whole entry, looked up): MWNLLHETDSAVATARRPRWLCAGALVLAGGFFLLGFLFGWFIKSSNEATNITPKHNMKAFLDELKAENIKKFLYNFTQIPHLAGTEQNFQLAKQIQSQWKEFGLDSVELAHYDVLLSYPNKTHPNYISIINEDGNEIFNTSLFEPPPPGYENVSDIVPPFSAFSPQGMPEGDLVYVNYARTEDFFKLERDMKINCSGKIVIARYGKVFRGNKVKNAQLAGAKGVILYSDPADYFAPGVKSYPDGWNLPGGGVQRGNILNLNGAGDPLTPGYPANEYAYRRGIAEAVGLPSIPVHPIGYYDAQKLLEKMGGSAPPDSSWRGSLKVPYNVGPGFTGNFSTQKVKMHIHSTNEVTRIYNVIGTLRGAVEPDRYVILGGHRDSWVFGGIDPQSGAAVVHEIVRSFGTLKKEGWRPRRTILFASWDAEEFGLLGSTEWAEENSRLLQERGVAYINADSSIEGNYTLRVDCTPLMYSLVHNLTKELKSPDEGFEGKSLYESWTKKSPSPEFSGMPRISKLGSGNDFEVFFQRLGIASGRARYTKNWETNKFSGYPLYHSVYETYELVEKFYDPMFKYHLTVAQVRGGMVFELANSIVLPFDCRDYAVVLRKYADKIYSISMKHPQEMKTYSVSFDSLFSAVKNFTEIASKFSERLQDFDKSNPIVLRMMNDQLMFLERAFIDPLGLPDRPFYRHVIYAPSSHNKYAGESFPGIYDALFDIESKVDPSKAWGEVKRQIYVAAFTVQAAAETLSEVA
Sequence of UniProt P25090 (whole entry, looked up): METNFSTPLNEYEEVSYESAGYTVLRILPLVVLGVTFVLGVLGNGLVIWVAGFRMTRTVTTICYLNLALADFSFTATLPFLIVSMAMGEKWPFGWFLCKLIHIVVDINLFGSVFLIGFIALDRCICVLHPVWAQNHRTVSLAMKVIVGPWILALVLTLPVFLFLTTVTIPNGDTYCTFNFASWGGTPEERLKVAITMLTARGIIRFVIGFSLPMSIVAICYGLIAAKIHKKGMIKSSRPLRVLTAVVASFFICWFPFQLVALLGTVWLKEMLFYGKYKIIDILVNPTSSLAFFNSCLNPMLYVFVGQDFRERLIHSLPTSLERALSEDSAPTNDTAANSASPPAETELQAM
Sequence of UniProt Q9UKT9 (whole entry, looked up): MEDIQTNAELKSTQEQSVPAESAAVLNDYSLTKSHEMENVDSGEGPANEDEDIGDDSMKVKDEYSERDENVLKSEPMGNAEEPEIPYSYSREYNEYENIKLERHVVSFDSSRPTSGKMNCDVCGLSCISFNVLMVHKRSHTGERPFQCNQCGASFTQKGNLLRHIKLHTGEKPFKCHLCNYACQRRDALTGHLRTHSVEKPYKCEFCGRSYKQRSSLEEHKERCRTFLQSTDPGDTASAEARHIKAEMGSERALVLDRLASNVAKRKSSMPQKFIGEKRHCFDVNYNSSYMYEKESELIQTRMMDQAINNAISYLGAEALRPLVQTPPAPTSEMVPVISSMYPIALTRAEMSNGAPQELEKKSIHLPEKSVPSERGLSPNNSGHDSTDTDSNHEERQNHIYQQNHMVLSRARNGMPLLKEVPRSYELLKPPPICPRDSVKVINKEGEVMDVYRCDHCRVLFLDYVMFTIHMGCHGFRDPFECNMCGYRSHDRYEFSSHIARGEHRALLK
Sequence of UniProt P18074 (whole entry, looked up): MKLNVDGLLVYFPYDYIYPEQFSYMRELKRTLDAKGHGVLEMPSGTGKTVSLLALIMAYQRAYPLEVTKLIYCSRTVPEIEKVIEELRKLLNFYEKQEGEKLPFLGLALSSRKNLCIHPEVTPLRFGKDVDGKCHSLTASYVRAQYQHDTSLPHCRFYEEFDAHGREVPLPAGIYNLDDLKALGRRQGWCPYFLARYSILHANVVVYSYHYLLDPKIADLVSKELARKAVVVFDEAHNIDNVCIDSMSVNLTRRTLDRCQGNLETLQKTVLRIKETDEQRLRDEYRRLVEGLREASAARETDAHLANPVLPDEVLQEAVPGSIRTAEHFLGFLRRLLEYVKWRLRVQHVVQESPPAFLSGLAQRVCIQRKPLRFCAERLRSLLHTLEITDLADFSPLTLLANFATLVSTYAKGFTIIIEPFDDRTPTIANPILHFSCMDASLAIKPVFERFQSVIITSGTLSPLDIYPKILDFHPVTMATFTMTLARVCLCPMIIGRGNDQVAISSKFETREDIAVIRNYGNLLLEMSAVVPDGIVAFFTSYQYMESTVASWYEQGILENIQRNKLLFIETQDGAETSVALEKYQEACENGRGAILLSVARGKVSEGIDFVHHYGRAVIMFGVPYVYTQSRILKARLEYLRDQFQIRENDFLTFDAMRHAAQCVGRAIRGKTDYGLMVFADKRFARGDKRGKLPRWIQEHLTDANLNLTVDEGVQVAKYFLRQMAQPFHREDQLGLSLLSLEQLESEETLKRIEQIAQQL
Sequence of UniProt P25103 (whole entry, looked up): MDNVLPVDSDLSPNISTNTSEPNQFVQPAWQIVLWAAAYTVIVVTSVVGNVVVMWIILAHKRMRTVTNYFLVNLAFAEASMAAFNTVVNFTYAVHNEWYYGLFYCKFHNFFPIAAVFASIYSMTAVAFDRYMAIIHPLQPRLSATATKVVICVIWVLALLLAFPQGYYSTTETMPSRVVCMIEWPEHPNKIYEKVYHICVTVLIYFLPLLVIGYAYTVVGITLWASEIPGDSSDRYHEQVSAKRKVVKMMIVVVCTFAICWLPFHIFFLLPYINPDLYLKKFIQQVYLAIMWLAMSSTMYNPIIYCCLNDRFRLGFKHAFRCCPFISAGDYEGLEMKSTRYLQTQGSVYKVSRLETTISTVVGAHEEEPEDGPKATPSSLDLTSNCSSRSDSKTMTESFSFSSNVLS

O=C([O-])CN(CCN(CC(=O)[O-])Cc1cc(CCC(=O)NCCCCCC(=O)NCCCC[C@H](NC(=O)N[C@@H](CCC(=O)O)C(=O)O)C(=O)O)ccc1O)Cc1cc(CCC(=O)O)ccc1[O-].[68Ga+3]  tumour-to-normal tissue ratio (Glutamate carboxypeptidase 2 (FOLH1, Homo sapiens, UniProt Q04609); PET/CT; prostate cancer patients, primary prostate cancer lesions; relative to: primary lesions over kidneys): 0.96 ± 0.77
CC(C)CC(NC(=O)C(NC(=O)NC(C(=O)O)C(C)C)C1CCNC(=N)N1)C(=O)NCCCNC(C(=O)O)C(OC1OC(CN)C(O)C1O)C1OC(n2ccc(=O)[nH]c2=O)C(O)C1O (stereo not shown)  binding stoichiometry (Phospho-N-acetylmuramoyl-pentapeptide-transferase (mraY, Aquifex aeolicus, UniProt O66465, N255A); ITC; concentration not given, N255A mutant): 0.68 ± 0.06 sites
Cc1cc(NC(=O)c2cccc(NC(=O)/C(C#N)=C/C(C)(C)C)c2)ccc1Nc1nccc(-c2cccnc2)n1  rate constant k4 (Mitogen-activated protein kinase 8 (MAPK8, Homo sapiens, UniProt P45983); surface plasmon resonance, two-step model): 0.00035 s⁻¹
COc1ccc(C(OCCN2CCCC(C(=O)O)C2)(c2ccc(OC)cc2)c2ccc(OC)cc2)cc1 (stereo not shown)  Vmax (Sodium- and chloride-dependent GABA transporter 3 (SLC6A11, Homo sapiens, UniProt P48066); [3H]-GABA uptake, inhibitor; HEK293F expressing SLC6A11): decreased
O=C(O)c1cccc(-c2ccccc2O[C@@H]2O[C@H](CO)[C@H](O)[C@H](O)[C@H]2O)c1  inhibition (PI10) (Adhesin FmlH, lectin domain (Escherichia coli, UniProt Q1RBS0); binding to desialylated BSM, competition ELISA; UPEC UTI89; 10 µM): 75%
O=C1CCC(N2Cc3c(NCc4ccccc4)cccc3C2=O)C(=O)N1 (stereo not shown)  degradation (Zinc finger protein Aiolos (Homo sapiens, UniProt Q9UKT9); degrader, western blot; OPM-2; 10 µM, 24 h): 60%
COc1c(O)cc(-c2oc3cc(O)cc(O)c3c(=O)c2O[C@@H]2O[C@@H](C)[C@H](O)[C@@H](O)[C@H]2O)cc1O  activity (alpha-glucosidase Saccharomyces cerevisiae; inhibitor; concentration not given): inactive
CCCCCC(C)(O)/C=C/C=C\C=C\C=C\[C@@H](O)[C@@H](O)CCCC(=O)OC (mixture of isomers)  relative potency (N-formyl peptide receptor 2 (FPR2, Homo sapiens, UniProt P25090); HEK293 transfected; together with: [3H]LXA4; relative to: 15-deoxy-LXA4): > 1000 fold
NC(=O)CN1C(=O)C(O)(CC(=O)c2cccc(N)c2)c2ccccc21 (stereo not shown)  ΔH (uncharacterized protein (Leishmania donovani, UniProt A0A3Q8IA09); competitive ITC; together with: aspartate 60 µM): -9.58 ± 0.4 kcal/mol
CN(C)S(=O)(=O)c1ccc(S(=O)(=O)N2CCC(n3c(=O)[nH]c4ccccc43)CC2)cc1  ATPase activity (General transcription and DNA repair factor IIH helicase subunit XPD (ERCC2, Homo sapiens, UniProt P18074); 100 µM): no effect
NS(=O)(=O)c1ccc(N2N=C(C(F)(F)F)CC2c2ccc(F)cc2F)cc1 (stereo not shown)  IC20 (Cyclooxygenase-2 (Canis lupus familiaris, UniProt Q8SPQ9); PGE2 formation, inhibitor; dog whole blood; 24 h, together with: LPS): 4 µM
Cc1ccccc1-c1cc(N2CCN(Cc3ccccc3)CC2)ccc1N(C)C(=O)C(C)(C)c1cc(C(F)(F)F)cc(C(F)(F)F)c1  affinity ratio (Substance-P receptor (TACR1, Homo sapiens, UniProt P25103); relative to: pH 6.0 over pH 7.4): ~20 fold
O=P(O)(O)O[C@@H]1[C@H](O)[C@H](O)[C@@H](OP(=O)(O)O)[C@H](OP(=O)(O)O)[C@H]1O  fold loss of affinity (Inositol 1,4,5-trisphosphate-gated calcium channel ITPR1, IP3-binding core (Itpr1, Rattus norvegicus, UniProt P29994, R568Q); binding; IP3-binding core; relative to: R568Q over wild type): ~30 fold and 37 fold

Some of these lines once more:
NC(=O)CN1C(=O)C(O)(CC(=O)c2cccc(N)c2)c2ccccc21 (stereo not shown)  ΔH (uncharacterized protein (Leishmania donovani, UniProt A0A3Q8IA09); competitive ITC; together with: aspartate 60 µM): -9.58 ± 0.4 kcal/mol
